# Published values from different studies.
# Compare with care: the assays were run in different laboratories. Numbers after ± are the reported error.
# Thyrotropin-releasing hormone receptor: Thyrotropin-releasing hormone receptor (Mus musculus, UniProt P21761)
# UniProt P21761, sequence (whole entry, looked up): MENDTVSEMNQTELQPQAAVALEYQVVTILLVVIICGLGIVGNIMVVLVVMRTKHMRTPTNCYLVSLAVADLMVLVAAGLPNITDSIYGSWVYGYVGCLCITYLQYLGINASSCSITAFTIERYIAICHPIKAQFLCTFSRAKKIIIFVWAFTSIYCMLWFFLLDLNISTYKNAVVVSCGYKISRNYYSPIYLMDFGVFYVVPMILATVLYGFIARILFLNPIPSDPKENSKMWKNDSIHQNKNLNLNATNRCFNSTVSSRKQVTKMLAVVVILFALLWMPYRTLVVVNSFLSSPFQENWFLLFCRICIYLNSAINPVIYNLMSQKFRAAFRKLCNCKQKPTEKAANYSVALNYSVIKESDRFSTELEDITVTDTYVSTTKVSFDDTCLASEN
# FFAR3: Free fatty acid receptor 3 (FFAR3, Homo sapiens, UniProt O14843)
# UniProt O14843, sequence (whole entry, looked up): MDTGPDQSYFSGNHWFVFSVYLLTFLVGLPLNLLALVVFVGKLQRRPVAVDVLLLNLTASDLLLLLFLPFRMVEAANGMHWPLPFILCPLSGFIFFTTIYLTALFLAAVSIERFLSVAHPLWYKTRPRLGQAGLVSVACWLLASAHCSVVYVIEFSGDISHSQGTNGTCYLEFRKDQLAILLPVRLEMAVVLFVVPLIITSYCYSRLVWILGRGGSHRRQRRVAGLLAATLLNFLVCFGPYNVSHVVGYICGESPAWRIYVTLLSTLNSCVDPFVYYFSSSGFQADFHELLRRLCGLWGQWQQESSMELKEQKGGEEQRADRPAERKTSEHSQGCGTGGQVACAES
# CXCR4: C-X-C chemokine receptor type 4 (CXCR4, Homo sapiens, UniProt P61073)
# NR1H2 ligand-binding domain: Oxysterols receptor LXR-beta, ligand-binding domain (NR1H2, Homo sapiens, UniProt P55055)
# UniProt P55055, sequence (whole entry, looked up): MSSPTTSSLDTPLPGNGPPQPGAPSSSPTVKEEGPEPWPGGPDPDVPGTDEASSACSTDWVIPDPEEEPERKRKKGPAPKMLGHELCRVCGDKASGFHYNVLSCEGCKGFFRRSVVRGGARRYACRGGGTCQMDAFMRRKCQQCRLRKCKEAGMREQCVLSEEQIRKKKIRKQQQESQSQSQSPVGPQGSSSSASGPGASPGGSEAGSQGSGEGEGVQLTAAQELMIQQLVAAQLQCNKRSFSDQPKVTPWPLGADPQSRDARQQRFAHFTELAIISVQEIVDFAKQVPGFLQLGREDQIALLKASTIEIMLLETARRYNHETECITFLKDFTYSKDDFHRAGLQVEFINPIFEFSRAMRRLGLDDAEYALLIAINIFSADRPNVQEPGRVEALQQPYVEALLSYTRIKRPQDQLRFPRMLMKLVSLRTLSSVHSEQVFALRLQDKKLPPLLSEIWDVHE
# UniProt Q03431, sequence (whole entry, looked up): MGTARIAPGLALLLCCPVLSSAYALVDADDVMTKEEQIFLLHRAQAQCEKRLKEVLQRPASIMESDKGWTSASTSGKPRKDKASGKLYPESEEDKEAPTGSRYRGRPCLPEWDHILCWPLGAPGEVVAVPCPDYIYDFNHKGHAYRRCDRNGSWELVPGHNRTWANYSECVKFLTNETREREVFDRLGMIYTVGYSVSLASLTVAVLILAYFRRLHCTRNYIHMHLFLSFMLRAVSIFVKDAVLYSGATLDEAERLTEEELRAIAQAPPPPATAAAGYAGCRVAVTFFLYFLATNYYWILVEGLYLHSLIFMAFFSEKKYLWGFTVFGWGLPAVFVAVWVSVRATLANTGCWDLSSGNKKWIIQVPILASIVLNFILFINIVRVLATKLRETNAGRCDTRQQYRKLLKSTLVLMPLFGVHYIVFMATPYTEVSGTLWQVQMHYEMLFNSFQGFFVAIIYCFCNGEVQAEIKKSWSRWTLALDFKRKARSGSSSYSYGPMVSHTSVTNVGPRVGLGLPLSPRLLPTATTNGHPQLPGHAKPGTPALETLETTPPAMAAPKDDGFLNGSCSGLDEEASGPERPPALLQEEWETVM
# UniProt Q9WTJ5, sequence (whole entry, looked up): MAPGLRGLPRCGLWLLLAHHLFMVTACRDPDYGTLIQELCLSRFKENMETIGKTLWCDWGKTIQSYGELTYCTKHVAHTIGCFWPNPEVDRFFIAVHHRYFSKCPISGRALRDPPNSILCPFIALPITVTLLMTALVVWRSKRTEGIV
# UniProt Q6W5P4, sequence (whole entry, looked up): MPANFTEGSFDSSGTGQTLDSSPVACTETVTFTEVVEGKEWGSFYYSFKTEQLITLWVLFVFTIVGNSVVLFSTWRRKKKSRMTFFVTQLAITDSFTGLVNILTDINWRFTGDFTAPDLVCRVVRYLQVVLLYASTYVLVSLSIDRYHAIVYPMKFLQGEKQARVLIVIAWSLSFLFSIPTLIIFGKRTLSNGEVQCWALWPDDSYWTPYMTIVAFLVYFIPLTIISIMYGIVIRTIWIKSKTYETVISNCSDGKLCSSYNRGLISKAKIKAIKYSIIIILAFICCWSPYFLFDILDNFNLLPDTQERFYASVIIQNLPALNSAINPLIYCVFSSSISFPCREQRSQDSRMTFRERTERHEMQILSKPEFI
# UniProt P30969, sequence (whole entry, looked up): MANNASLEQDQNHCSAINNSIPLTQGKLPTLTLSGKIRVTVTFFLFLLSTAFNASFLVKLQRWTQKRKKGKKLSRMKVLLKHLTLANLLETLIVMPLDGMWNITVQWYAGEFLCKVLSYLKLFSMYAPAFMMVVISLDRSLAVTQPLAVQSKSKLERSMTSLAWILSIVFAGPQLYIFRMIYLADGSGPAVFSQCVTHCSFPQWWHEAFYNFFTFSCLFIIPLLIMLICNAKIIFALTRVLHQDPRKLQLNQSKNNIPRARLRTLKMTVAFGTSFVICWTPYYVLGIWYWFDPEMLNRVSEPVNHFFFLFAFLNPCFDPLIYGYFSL
# UniProt P41586, sequence (whole entry, looked up): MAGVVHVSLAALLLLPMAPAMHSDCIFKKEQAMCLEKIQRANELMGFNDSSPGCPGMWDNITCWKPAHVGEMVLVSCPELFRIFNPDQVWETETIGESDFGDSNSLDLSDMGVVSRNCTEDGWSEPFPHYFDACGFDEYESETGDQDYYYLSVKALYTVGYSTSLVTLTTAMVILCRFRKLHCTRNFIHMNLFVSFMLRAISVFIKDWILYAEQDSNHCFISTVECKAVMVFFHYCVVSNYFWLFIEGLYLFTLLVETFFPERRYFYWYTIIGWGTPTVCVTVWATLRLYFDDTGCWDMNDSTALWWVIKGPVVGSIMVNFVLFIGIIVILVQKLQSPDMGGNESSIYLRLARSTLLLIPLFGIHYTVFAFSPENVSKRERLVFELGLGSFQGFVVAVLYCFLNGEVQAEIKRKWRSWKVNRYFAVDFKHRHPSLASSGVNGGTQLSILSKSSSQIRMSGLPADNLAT
# UniProt O75762, sequence (whole entry, looked up): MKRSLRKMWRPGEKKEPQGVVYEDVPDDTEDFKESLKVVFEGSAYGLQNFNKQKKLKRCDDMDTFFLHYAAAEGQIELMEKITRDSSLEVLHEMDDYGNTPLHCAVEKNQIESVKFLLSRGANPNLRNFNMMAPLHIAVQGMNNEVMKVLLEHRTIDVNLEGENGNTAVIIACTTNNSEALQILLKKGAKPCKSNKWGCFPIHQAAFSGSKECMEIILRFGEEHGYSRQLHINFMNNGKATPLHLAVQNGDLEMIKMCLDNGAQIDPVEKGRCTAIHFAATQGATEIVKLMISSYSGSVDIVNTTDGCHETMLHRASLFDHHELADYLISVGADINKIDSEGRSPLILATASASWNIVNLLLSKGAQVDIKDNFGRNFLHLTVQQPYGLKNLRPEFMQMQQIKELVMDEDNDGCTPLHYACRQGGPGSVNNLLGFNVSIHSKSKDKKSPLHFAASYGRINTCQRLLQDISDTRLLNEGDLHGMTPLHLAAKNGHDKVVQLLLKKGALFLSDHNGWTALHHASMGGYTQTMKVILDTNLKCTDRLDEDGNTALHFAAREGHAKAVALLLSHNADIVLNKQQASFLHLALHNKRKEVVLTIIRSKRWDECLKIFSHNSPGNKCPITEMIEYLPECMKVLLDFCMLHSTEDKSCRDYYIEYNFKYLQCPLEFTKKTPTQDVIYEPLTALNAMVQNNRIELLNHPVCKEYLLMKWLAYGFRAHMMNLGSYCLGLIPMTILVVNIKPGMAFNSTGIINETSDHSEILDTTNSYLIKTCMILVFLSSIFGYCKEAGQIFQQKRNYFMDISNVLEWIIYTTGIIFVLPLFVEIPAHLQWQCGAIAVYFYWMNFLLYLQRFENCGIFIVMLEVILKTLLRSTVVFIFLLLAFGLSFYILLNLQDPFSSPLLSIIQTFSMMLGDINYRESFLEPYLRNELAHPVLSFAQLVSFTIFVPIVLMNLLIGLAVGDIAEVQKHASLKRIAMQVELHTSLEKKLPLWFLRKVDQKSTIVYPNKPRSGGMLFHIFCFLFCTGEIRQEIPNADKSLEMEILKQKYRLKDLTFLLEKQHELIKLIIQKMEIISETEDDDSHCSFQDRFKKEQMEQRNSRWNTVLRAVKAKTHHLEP
# UniProt Q60755, sequence (whole entry, looked up): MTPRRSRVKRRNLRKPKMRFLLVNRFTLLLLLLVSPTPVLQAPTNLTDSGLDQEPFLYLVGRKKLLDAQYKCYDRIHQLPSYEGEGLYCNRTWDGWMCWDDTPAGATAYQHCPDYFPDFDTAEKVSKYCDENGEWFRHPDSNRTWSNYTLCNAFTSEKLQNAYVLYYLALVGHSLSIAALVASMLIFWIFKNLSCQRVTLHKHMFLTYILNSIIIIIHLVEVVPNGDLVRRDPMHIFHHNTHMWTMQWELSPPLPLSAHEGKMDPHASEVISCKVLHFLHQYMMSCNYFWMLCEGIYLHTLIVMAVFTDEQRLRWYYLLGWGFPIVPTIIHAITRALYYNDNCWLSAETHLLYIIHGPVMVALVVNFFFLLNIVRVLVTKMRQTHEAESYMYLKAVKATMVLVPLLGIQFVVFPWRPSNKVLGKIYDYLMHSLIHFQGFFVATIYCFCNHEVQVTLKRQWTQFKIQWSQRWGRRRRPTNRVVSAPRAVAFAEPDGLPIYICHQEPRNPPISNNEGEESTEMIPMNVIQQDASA
Structure (SMILES),target,test,system,conditions,EC50
Cn1cnc(C[C@H](NC(=O)C2CCCCN2)C(=O)N2CCC[C@H]2C(N)=O)c1 (some centres unmarked),Thyrotropin-releasing hormone receptor,"calcium signal, agonist, fluorescence",,,3.55 µM
C[C@H](NC(=O)[C@H](CC(N)=O)NC(=O)[C@H](Cc1c[nH]c2ccccc12)NC(=O)[C@H](CCCNC(=N)N)NC(=O)[C@@H](Cc1ccccc1)NC(=O)[C@H](Cc1c[nH]cn1)NC(=O)[C@H](CN=[N+]=[N-])NC(=O)[C@@H](N)Cc1ccc(O)cc1)C(=O)N[C@@H](Cc1ccccc1)C(=O)N[C@@H](CN=[N+]=[N-])C(=O)N[C@@H](Cc1ccc(O)cc1)C(N)=O,"Melanocortin receptor 5 (Mus musculus, UniProt P41149)",agonist,,,0.02 ± 0.002 µM
O=C(O)CC1CC1,FFAR3,agonist,,,209 µM
CCOc1ccccc1-c1nnc2n1N=C(c1ccc(NC3CCCCC3)cc1)CS2,CXCR4,"β-arrestin recruitment, agonist",,,0.77 µM
NC(=O)[C@@H]1CCCN1C(=O)[C@H](Cc1cn(Cc2ccccc2)cn1)NC(=O)c1nccnc1N,Thyrotropin-releasing hormone receptor,"calcium signal, agonist, fluorescence",,,0.058 µM
COc1cc(-c2cnc3nc2NCCCNS(=O)(=O)c2cccc(c2)N3)ccc1F,"EPHA4 (Homo sapiens, UniProt P54764)","target engagement in cells, BRET",,,0.45 µM
CN(C(=O)c1ccc(F)cc1)c1ccc(C(O)(C(F)(F)F)C(F)(F)F)cc1,NR1H2 ligand-binding domain,agonist,,concentration not given,1.72 ± 0.04 µM
CC(C)C[C@H](NC(=O)[C@@H](Cc1c[nH]c2ccccc12)NC(=O)[C@H](Cc1c[nH]cn1)NC(=O)[C@H](CO)NC(=O)[C@H](Cc1c[nH]c2ccccc12)NC(=O)[C@H](Cc1c[nH]cn1)NC(=O)[C@@H]1CCC(=O)N1)C(=O)N[C@@H](CCCNC(=N)N)C(=O)N1CCC[C@H]1C(=O)NCC(N)=O,"Gonadotropin-releasing hormone receptor (Rattus norvegicus, UniProt P30969)","inositol phosphate accumulation, agonist",WPE-1-NB26-3 expressing Gonadotropin-releasing hormone receptor,"60 min, 37 °C, with: 10 mM LiCl",0.0004 ± 0.0001 µM
CN(C(=O)c1cccc2ccccc12)c1ccc(C(O)(C(F)(F)F)C(F)(F)F)cc1,NR1H2 ligand-binding domain,agonist,,concentration not given,2.23 ± 0.02 µM
CCOc1ccccc1-c1nnc2n1N=C(c1ccc(N)cc1)CS2,CXCR4,"β-arrestin recruitment, agonist",,,> 10 µM
C/C=C\C(=O)O,FFAR3,"cAMP, agonist, TR-FRET",,,479 µM
CC(C)C[C@H](NC(=O)CNC(=O)[C@H](C)NC(=O)[C@H](CC(C)C)NC(=O)[C@H](CCCNC(=N)N)NC(=O)[C@H](Cc1cnc[nH]1)NC(=O)[C@@H](NC(=O)[C@@H](NC(=O)[C@@H]1CSSC[C@H](NC(=O)[C@H](C)N)C(=O)N[C@@H](CC(=O)O)C(=O)N[C@@H]([C@@H](C)O)C(=O)N[C@@H](C)C(=O)N[C@@H]([C@@H](C)O)C(=O)N1)C(C)C)[C@@H](C)O)C(=O)N[C@@H](CC(C)C)C(=O)N[C@@H](CO)C(=O)N[C@@H](CCCNC(=N)N)C(=O)N[C@@H](CO)C(=O)NCC(=O)NCC(=O)N[C@H](C(=O)N[C@H](C(=O)N[C@@H](CCCCN)C(=O)N[C@@H](CC(N)=O)C(=O)N[C@@H](CC(N)=O)C(=O)N[C@@H](Cc1ccccc1)C(=O)N[C@H](C(=O)N1CCC[C@H]1C(=O)N[C@H](C(=O)N[C@@H](CC(N)=O)C(=O)N[C@H](C(=O)NCC(=O)N[C@@H](CO)C(=O)N[C@@H](CCCCN)C(=O)N[C@@H](C)C(=O)N[C@@H](Cc1ccccc1)C(N)=O)C(C)C)[C@@H](C)O)C(C)C)C(C)C)C(C)C,"Calcr/Ramp1 (Mus musculus, UniProt Q60755+Q9WTJ5)","cAMP production, agonist","COS-7, transfected","15 min, 37 °C, with: IBMX 1 mM",0.00603 µM
O=C(NC[C@H](Cc1ccc(F)cc1)N1CCC(O)(C(F)(F)F)CC1)C1(c2ccc(Cl)cc2)CCCC1,"TRPA1 (Homo sapiens, UniProt O75762)","calcium signal, agonist",,,2.2 µM
CC[C@H](C)[C@H](NC(=O)CNC(=O)[C@H](CC(=O)O)NC(=O)[C@H](CO)NC(=O)Cc1cccnc1)C(=O)N[C@@H](Cc1ccccc1)C(=O)N[C@H](C(=O)N[C@@H](CC(=O)O)C(=O)N[C@@H](CO)C(=O)N[C@@H](Cc1ccc(O)cc1)C(=O)N[C@@H](CO)C(=O)N[C@@H](CCCNC(=N)N)C(=O)N[C@@H](Cc1ccc(O)cc1)C(=O)N[C@@H](CCCNC(=N)N)C(=O)N[C@@H](CCCCN)C(=O)N[C@@H](CCC(N)=O)C(=O)N[C@@H](CCSC)C(=O)N[C@@H](C)C(=O)N[C@H](C(=O)N[C@@H](CCCCN)C(=O)N[C@@H](CCCCN)C(=O)N[C@@H](C)C(=O)N[C@@H](CC(C)C)C(=O)N[C@@H](C)C(=O)N[C@@H](C)C(=O)N[C@H](C(=O)N[C@@H](CC(C)C)C(=O)NCC(=O)N[C@@H](CCCCN)C(=O)N[C@@H](CCCNC(=N)N)C(=O)N[C@@H](Cc1ccc(O)cc1)C(=O)N[C@@H](CCCCN)C(=O)N[C@@H](CCC(N)=O)C(=O)N[C@@H](CCCNC(=N)N)C(=O)N[C@H](C(=O)N[C@@H](CCCCN)C(=O)N[C@@H](CC(N)=O)C(=O)N[C@@H](CCCCN)C(N)=O)C(C)C)C(C)C)C(C)C)[C@@H](C)O,"ADCYAP1R1 (Homo sapiens, UniProt P41586)","cAMP, agonist, radiometric",,,0.01 µM
C#CCC(=O)O,FFAR3,agonist,,,> 10000 µM
CC[C@H](C)[C@H](NC(=O)[C@H](CO)NC(=O)[C@H](CCCCN)NC(=O)CNC(=O)[C@H](CCCCN)NC(=O)[C@H](CC(=O)O)NC(=O)[C@H](Cc1c[nH]cn1)NC(=O)[C@H](CC(C)C)NC(=O)[C@H](CC(C)C)NC(=O)[C@H](CCC(N)=O)NC(=O)[C@H](Cc1c[nH]cn1)NC(=O)[C@H](CCC(=O)O)NC(=O)[C@H](CO)NC(=O)[C@@H](NC(=O)[C@H](C)N)C(C)C)C(=O)N[C@@H](CCC(N)=O)C(=O)N[C@@H](CC(=O)O)C(=O)N[C@@H](CC(C)C)C(=O)N[C@@H](CCC(=O)O)C(=O)N[C@@H](CCCNC(=N)N)C(=O)N[C@H](C(=O)N[C@@H](CCC(=O)O)C(=O)N[C@@H](Cc1c[nH]c2ccccc12)C(=O)N[C@@H](CC(C)C)C(=O)N[C@@H](CCCNC(=N)N)C(=O)N[C@@H](CCCCN)C(=O)N[C@@H](CCCCN)C(=O)N[C@@H](CC(C)C)C(=O)N[C@@H](CCC(N)=O)C(=O)N[C@@H](CC(=O)O)C(=O)N[C@H](C(=O)N[C@@H](Cc1c[nH]cn1)C(=O)N[C@@H](CC(N)=O)C(=O)N[C@@H](Cc1ccccc1)C(=O)N[C@@H](CCCCNC(=O)c1ccc2c(c1)C1(OC2=O)c2ccc(N(C)C)cc2Oc2cc(N(C)C)ccc21)C(N)=O)C(C)C)C(C)C,"PTH1R (Homo sapiens, UniProt Q03431)","cAMP formation, agonist, GloSensor",HEK293 GP2.3,15 min,0.00016 ± 4e-05 µM
N=C(N)NCCC[C@H](NC(=O)[C@H](Cc1ccccc1)NC(=O)[C@@H](N)CO)C(=O)N[C@@H](CC(N)=O)C(N)=O,"NPSR1 (Homo sapiens, UniProt Q6W5P4)","calcium signal, agonist",,,0.998 µM

# For quick reference, copied from above:
Structure (SMILES),target,test,system,conditions,EC50
CN(C(=O)c1ccc(F)cc1)c1ccc(C(O)(C(F)(F)F)C(F)(F)F)cc1,NR1H2 ligand-binding domain,agonist,,concentration not given,1.72 ± 0.04 µM
